Assay results from different studies.
Parts stem from different laboratories: compare values within a part only.
UniProt P42336, sequence (whole entry, unmodified, looked up): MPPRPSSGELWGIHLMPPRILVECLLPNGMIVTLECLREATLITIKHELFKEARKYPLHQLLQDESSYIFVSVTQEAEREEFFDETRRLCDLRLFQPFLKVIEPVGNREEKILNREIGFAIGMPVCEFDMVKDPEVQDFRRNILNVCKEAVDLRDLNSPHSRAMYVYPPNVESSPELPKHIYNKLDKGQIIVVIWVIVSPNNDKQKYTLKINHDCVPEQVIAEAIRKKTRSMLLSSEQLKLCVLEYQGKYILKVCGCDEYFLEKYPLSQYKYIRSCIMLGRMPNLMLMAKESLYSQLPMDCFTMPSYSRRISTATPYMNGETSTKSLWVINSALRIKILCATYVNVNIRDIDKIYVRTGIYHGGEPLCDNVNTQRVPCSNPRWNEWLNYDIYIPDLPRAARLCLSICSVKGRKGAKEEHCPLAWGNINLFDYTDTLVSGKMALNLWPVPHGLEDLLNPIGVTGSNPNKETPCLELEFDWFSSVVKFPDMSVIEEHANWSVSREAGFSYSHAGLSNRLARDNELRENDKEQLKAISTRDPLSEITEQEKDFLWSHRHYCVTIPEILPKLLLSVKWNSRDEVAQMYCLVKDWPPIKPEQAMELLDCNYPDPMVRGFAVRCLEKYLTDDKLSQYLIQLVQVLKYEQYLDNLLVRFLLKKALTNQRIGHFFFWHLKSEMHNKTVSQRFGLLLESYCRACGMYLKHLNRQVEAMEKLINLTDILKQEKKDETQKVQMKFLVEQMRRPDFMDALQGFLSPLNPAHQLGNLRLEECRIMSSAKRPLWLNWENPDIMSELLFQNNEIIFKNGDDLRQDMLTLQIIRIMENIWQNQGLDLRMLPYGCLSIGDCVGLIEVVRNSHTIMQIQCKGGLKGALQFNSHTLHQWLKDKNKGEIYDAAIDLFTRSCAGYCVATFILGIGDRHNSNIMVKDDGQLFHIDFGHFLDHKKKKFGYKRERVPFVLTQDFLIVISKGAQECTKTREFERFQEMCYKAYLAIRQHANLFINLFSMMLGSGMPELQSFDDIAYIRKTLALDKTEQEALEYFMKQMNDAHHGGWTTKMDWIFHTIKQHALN
UniProt O75676, sequence (whole entry, looked up): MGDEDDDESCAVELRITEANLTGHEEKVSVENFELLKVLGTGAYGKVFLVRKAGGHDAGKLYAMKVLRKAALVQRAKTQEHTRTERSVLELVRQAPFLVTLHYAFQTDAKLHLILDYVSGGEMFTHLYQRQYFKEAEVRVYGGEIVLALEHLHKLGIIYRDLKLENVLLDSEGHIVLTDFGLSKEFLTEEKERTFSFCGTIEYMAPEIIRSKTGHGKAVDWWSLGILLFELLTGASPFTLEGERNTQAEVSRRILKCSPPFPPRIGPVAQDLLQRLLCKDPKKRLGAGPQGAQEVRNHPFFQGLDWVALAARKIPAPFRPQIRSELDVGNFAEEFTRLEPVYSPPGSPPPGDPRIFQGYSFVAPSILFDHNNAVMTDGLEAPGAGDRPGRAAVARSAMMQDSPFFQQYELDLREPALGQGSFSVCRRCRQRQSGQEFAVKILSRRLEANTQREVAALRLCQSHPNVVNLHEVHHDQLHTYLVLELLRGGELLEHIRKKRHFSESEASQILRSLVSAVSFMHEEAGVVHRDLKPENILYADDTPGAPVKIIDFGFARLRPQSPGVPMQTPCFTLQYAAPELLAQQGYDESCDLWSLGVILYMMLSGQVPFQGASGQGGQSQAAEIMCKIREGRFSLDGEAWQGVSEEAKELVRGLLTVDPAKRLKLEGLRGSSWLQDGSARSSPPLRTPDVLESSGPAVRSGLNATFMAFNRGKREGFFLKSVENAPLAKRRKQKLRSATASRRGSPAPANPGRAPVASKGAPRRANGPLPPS
UniProt P24723, sequence (whole entry, looked up): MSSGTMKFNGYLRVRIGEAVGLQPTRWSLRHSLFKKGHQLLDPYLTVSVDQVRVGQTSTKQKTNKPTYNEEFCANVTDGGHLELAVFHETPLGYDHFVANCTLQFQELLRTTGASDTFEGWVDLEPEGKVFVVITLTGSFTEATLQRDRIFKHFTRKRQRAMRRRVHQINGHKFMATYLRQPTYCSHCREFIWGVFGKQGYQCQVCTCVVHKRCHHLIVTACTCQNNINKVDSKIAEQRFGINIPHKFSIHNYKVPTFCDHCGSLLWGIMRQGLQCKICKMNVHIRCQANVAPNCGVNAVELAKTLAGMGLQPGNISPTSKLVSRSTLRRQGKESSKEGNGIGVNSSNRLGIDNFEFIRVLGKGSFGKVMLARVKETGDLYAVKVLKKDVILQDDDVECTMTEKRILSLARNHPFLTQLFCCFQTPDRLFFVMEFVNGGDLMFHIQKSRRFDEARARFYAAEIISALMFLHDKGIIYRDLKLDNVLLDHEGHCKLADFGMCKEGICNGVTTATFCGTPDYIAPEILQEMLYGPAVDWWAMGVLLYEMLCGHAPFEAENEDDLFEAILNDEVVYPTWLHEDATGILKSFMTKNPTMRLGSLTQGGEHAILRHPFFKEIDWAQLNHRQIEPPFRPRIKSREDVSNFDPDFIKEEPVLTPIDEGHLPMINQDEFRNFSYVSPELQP
UniProt Q8N5S9, sequence (whole entry, looked up): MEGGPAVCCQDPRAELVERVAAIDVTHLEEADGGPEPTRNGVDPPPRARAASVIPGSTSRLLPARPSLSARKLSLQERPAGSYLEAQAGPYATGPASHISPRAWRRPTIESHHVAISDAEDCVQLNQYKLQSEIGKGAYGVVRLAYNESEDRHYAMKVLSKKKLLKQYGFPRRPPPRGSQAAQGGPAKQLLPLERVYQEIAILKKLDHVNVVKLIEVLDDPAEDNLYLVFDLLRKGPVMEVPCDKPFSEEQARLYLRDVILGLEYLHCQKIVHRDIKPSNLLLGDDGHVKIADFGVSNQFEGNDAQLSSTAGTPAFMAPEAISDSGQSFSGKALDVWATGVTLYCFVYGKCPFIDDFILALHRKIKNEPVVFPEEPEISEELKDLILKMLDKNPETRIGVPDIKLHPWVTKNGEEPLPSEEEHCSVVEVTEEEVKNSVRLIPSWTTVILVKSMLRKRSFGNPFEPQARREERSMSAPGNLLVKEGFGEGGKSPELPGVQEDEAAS
UniProt P30291, sequence (whole entry, looked up): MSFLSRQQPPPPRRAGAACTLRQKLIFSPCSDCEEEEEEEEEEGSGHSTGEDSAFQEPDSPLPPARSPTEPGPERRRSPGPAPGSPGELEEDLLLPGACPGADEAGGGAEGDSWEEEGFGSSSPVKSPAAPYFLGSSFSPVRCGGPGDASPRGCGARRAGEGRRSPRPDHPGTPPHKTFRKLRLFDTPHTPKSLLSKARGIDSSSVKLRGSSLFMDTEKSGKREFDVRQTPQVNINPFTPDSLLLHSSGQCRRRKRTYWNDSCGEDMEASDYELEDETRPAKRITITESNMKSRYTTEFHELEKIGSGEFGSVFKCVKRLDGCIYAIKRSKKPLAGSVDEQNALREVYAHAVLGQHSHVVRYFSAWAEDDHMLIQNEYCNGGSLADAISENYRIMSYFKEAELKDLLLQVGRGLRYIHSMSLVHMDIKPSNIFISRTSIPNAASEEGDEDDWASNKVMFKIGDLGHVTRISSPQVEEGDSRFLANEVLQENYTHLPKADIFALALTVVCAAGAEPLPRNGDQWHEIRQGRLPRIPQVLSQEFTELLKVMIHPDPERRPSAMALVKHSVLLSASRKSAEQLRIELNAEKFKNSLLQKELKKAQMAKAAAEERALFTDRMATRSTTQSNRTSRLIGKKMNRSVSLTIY
UniProt P07332, sequence (whole entry, looked up): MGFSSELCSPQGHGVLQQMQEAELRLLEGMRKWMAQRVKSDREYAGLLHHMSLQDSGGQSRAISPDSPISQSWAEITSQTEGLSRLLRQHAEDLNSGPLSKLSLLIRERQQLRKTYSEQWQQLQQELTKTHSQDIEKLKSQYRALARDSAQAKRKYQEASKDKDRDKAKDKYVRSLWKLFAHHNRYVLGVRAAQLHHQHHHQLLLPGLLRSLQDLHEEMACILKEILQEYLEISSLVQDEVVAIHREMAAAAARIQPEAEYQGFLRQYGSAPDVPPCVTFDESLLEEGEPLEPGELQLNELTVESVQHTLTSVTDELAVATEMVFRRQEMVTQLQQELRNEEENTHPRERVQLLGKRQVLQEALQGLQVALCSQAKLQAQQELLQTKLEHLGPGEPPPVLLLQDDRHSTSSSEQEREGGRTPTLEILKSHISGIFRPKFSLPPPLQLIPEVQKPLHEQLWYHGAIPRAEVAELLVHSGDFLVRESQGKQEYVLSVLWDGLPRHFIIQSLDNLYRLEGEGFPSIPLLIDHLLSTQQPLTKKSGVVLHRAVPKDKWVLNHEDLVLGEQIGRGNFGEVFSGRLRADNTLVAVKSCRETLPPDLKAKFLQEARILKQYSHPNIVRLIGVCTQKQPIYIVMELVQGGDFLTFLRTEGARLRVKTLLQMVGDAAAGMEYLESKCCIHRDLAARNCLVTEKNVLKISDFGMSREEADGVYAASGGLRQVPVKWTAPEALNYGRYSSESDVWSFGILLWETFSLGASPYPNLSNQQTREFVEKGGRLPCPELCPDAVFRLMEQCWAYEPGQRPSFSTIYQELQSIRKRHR

Sample 1
Target: Calcium/calmodulin-dependent protein kinase type II subunit alpha (CAMK2A, Homo sapiens, UniProt Q9UQM7)
UniProt Q9UQM7, sequence (whole entry, looked up): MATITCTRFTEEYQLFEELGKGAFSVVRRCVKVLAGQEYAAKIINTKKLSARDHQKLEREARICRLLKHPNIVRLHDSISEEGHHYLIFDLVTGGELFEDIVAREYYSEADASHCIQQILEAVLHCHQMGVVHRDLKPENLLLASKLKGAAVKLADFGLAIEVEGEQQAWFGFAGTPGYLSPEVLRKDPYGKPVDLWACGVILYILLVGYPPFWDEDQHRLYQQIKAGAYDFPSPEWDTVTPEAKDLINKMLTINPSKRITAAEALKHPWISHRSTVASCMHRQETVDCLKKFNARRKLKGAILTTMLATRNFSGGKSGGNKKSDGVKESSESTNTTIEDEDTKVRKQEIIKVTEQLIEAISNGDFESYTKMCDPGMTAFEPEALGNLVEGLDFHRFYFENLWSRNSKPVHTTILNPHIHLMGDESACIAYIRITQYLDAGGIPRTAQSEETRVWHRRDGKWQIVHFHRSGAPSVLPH
Effect on: enzyme activity
Action: inhibitor
Tested at: 10 µM
`C/C=C(\CC[C@@H](C)[C@H]1CC[C@H]2[C@@H]3CC=C4C[C@@H](O)CC[C@]4(C)[C@H]3CC[C@]12C)C(C)C` has an inhibition of 33%.
For `NCCC[C@@H](N)C(=O)O`, the inhibition was 13%.
For `COc1ccc(O)cc1OC`, the inhibition was -14%.
With `CC(=O)c1ccc(C)cc1` the inhibition was 3%.
`NC(=O)CC(N)C(=O)O` (racemic) gave an inhibition of 31%.
The inhibition of `O=C[C@H](O)[C@@H](O)[C@H](O[C@H]1O[C@H](CO)[C@@H](O[C@H]2O[C@H](CO)[C@@H](O[C@H]3O[C@H](CO)[C@@H](O)[C@H](O)[C@H]3O)[C@H](O)[C@H]2O)[C@H](O)[C@H]1O)[C@H](O)CO` is reported as 23%.
With `CC(C)Nc1cccnc1N1CCN(C(=O)c2cc3cc(NS(C)(=O)=O)ccc3[nH]2)CC1` the inhibition was -7%.
With `CC(=O)OCc1ccccc1` the inhibition was -4%.
The inhibition of `O=C(O)[C@H](O)[C@H](O)[C@@H](O)[C@H](O)[C@H](O)CO` is reported as -7%.
`COc1cc2oc(=O)ccc2cc1O[C@@H]1O[C@H](CO)[C@@H](O)[C@H](O)[C@H]1O` has an inhibition of 17%.
For `C=C1[C@H]2C[C@H]2[C@]2(C)Cc3occ(C)c3[C@H](O)[C@@H]12`, the inhibition was -1%.

Sample 2
Organism: Sarcocystis neurona
Effect on: parasite activity
Tested at: 10 µM
Time: 96 h
For `C[N+]1(C)CCC(OC(=O)C(O)(c2ccccc2)C2CCCC2)C1` (stereo not shown), activity class read “inactive”.
`CN(C)C(=O)C(CCN1CCC(O)(c2ccc(Cl)cc2)CC1)(c1ccccc1)c1ccccc1` — result for activity class: “inactive”.
`CCOC(=O)[C@H](CCc1ccccc1)N[C@@H](C)C(=O)N1CCC[C@H]1C(=O)O`: activity class “inactive”.
Under activity class, `CC(C)c1ccc2oc3nc(N)c(C(=O)O)cc3c(=O)c2c1` is recorded as “inactive”.
For `C[C@H]1O[C@@H](O[C@H]2[C@@H](O)C[C@H](O[C@H]3[C@@H](O)C[C@H](O[C@H]4CC[C@@]5(C)[C@H](CC[C@@H]6[C@@H]5C[C@@H](O)[C@]5(C)[C@@H](C7=CC(=O)OC7)CC[C@]65O)C4)O[C@@H]3C)O[C@@H]2C)C[C@H](O)[C@@H]1O`, activity class read “inactive”.
`CCN(CC)CC(=O)Nc1c(C)cccc1C`: activity class “inactive”.
Under activity class, `O=C(O)Cc1ccccc1Nc1c(Cl)cccc1Cl` is recorded as “inactive”.
`CN(C)C(=O)Oc1ccc[n+](C)c1` — result for activity class: “inactive”.
`CCCSc1ccc2nc(NC(=O)OC)[nH]c2c1` — result for activity class: “inactive”.
`Nc1nc(=O)c2nc(CNc3ccc(C(=O)N[C@@H](CCC(=O)O)C(=O)O)cc3)cnc2[nH]1` — result for activity class: “inactive”.
`O=C(O)COCCN1CCN(C(c2ccccc2)c2ccc(Cl)cc2)CC1` (stereo not shown): activity class “inactive”.
For `c1ccc2c(CC3=NCCN3)cccc2c1`, activity class read “inactive”.
`COC1=C(OC)C(=O)C(CCCCCCCCCCO)=C(C)C1=O`: activity class “inactive”.
`CN(C)CCOC(c1ccccc1)c1ccccc1`: activity class “inactive”.
For `CN1CCN(C2=Nc3cc(Cl)ccc3Nc3ccccc32)CC1`, activity class read “inactive”.
Under activity class, `Cn1cc[nH]c1=S` is recorded as “inactive”.
`C=C1/C(=C\C=C2/CCC[C@]3(C)[C@@H]([C@H](C)/C=C/[C@@H](O)C4CC4)CC[C@@H]23)C[C@@H](O)C[C@@H]1O`: activity class “inactive”.
`CC(C(=O)O)c1ccc(-c2ccccc2)c(F)c1` (stereo not shown) — result for activity class: “inactive”.
Under activity class, `CN(C)CCC=C1c2ccccc2COc2ccccc21` is recorded as “inactive”.

Sample 3
Target: Calcium/calmodulin-dependent protein kinase type II subunit alpha (CAMK2A, Homo sapiens, UniProt Q9UQM7)
Effect on: enzyme activity
Action: inhibitor
Tested at: 0.5 µM
Baseline: control
`Oc1cccc(-c2nc(N3CCOCC3)c3oc4ncccc4c3n2)c1` gave a remaining activity of 93.7%.
For `c1ccc2c(-c3ccncc3)c[nH]c2c1`, the remaining activity was 104%.
`COc1cccc(-c2cc(=O)c3ccccc3o2)c1N` gave a remaining activity of 93.6%.
`O=C1Cc2c([nH]c3ccc(Br)cc23)-c2ccccc2N1` has a remaining activity of 105%.
`O=C1Nc2ccc(Br)cc2/C1=C/c1cc2c([nH]1)CCCC2` has a remaining activity of 93.3%.
`CN(C)S(=O)(=O)c1ccc2c(c1)/C(=C/c1cc3c([nH]1)CCCC3)C(=O)N2` gave a remaining activity of 61.4%.
The remaining activity of `O=C1Nc2ccccc2/C1=C\c1c(Cl)[nH]c2ccccc12` is reported as 103%.
The remaining activity of `O=C(c1cc2cc(O)ccc2[nH]1)c1cc2cc(O)ccc2[nH]1` is reported as 74.5%.
`Cc1cc(Nc2cc(N3CCN(C)CC3)nc(Sc3ccc(NC(=O)C4CC4)cc3)n2)[nH]n1` has a remaining activity of 84.1%.
For `O=C1NC(=O)c2c1c1c3ccccc3[nH]c1n1cncc21`, the remaining activity was 55.1%.
`CCCNC(=O)Nc1ccc(Oc2ncnc3cc(OC)c(OC)cc23)cc1Cl` has a remaining activity of 97.5%.
For `CCCCc1c(-c2ccc(OC)cc2)[nH]c2nccnc12`, the remaining activity was 100%.
For `O=c1cc(N2CCOCC2)oc2c(-c3ccccc3)cccc12`, the remaining activity was 91.1%.
For `COc1ccc(COc2ccc(Cc3cnc(N)nc3N)cc2OC)cc1`, the remaining activity was 105%.
`O=C1NC(=O)c2c1c1c3ccccc3[nH]c1c1[nH]c3cc(Br)ccc3c21` has a remaining activity of 78.3%.
`N#Cc1cnc2cnc(NCc3cccnc3)cc2c1Nc1ccc(F)c(Cl)c1` has a remaining activity of 105%.
`c1ccc(-c2n[nH]c3c2oc2ccccc23)cc1` has a remaining activity of 110%.
`COc1ccc2c(c1)c(C1=C(c3c[nH]c4ccccc34)C(=O)NC1=O)cn2CCCN(C)C` has a remaining activity of 102%.
`CN1CCN(c2ccc3nc(-c4c(N)c5c(F)cccc5[nH]c4=O)[nH]c3c2)CC1` gave a remaining activity of 53.9%.
For `O=Nc1c(-c2c(O)[nH]c3cc(Br)ccc23)[nH]c2ccccc12`, the remaining activity was 13.9%.
For `Cc1ccc(S(=O)(=O)/C=C/C#N)cc1`, the remaining activity was 103%.

Sample 4
SMILES: C[C@@H](c1cccc(C#N)c1)n1cc(Cl)cc(C(N)=O)c1=N
Method: competition with immobilised ligand
Tested at: 1 µM
For Dual specificity mitogen-activated protein kinase kinase 4 (MAP2K4, Homo sapiens, UniProt P45985); cell-free assay: remaining binding read 82%.
The remaining binding was 100% (Wee1-like protein kinase (WEE1, Homo sapiens, UniProt P30291); cell-free assay).
5'-AMP-activated protein kinase catalytic subunit alpha-1 (PRKAA1, Homo sapiens, UniProt Q13131); cell-free assay — remaining binding: 100%.
Proto-oncogene tyrosine-protein kinase ROS (ROS1, Homo sapiens, UniProt P08922); cell-free assay — remaining binding: 100%.
It gave 0% for remaining binding (Tyrosine-protein kinase ABL1, phosphorylated (ABL1, Homo sapiens, UniProt P00519, T315I); cell-free assay).
It gave 100% for remaining binding (Mitogen-activated protein kinase kinase kinase 5 (MAP3K5, Homo sapiens, UniProt Q99683); cell-free assay).
For RAC-alpha serine/threonine-protein kinase (AKT1, Homo sapiens, UniProt P31749); cell-free assay: remaining binding read 100%.
For Tyrosine-protein kinase Fes/Fps (FES, Homo sapiens, UniProt P07332); cell-free assay: remaining binding read 77%.
For Cyclin-dependent kinase-like 3 (CDKL3, Homo sapiens, UniProt Q8IVW4); binding: remaining binding read 85%.
For Phosphatidylinositol 4,5-bisphosphate 3-kinase catalytic subunit alpha isoform (PIK3CA, Homo sapiens, UniProt P42336, E542K); cell-free assay: remaining binding read 89%.
Fibroblast growth factor receptor 2 (FGFR2, Homo sapiens, UniProt P21802); cell-free assay — remaining binding: 67%.
It gave 93% for remaining binding (Hepatocyte growth factor receptor (MET, Homo sapiens, UniProt P08581); cell-free assay).
Protein kinase C eta type (PRKCH, Homo sapiens, UniProt P24723); cell-free assay — remaining binding: 98%.
The remaining binding was 80% (Ribosomal protein S6 kinase alpha-4, C-terminal kinase domain (RPS6KA4, Homo sapiens, UniProt O75676); cell-free assay).
The remaining binding was 100% (Calcium/calmodulin-dependent protein kinase kinase 1 (CAMKK1, Homo sapiens, UniProt Q8N5S9); cell-free assay).
The remaining binding was 75% (Rhodopsin kinase GRK1 (GRK1, Homo sapiens, UniProt Q15835); cell-free assay).

A few entries again (sample 4):
It gave 100% for remaining binding (Mitogen-activated protein kinase kinase kinase 5 (MAP3K5, Homo sapiens, UniProt Q99683); cell-free assay).
For RAC-alpha serine/threonine-protein kinase (AKT1, Homo sapiens, UniProt P31749); cell-free assay: remaining binding read 100%.
For Tyrosine-protein kinase Fes/Fps (FES, Homo sapiens, UniProt P07332); cell-free assay: remaining binding read 77%.
For Cyclin-dependent kinase-like 3 (CDKL3, Homo sapiens, UniProt Q8IVW4); binding: remaining binding read 85%.
For Phosphatidylinositol 4,5-bisphosphate 3-kinase catalytic subunit alpha isoform (PIK3CA, Homo sapiens, UniProt P42336, E542K); cell-free assay: remaining binding read 89%.
Fibroblast growth factor receptor 2 (FGFR2, Homo sapiens, UniProt P21802); cell-free assay — remaining binding: 67%.
It gave 93% for remaining binding (Hepatocyte growth factor receptor (MET, Homo sapiens, UniProt P08581); cell-free assay).
Protein kinase C eta type (PRKCH, Homo sapiens, UniProt P24723); cell-free assay — remaining binding: 98%.
The remaining binding was 80% (Ribosomal protein S6 kinase alpha-4, C-terminal kinase domain (RPS6KA4, Homo sapiens, UniProt O75676); cell-free assay).
The remaining binding was 100% (Calcium/calmodulin-dependent protein kinase kinase 1 (CAMKK1, Homo sapiens, UniProt Q8N5S9); cell-free assay).
